# Results pooled from the literature.
# Compare with care: the assays were run in different laboratories. ± marks the error that the study gave.
# Inward rectifier potassium channel 4: Inward rectifier potassium channel 4 (Homo sapiens, UniProt P48050)
# Sequence of UniProt P48050 (whole entry, looked up): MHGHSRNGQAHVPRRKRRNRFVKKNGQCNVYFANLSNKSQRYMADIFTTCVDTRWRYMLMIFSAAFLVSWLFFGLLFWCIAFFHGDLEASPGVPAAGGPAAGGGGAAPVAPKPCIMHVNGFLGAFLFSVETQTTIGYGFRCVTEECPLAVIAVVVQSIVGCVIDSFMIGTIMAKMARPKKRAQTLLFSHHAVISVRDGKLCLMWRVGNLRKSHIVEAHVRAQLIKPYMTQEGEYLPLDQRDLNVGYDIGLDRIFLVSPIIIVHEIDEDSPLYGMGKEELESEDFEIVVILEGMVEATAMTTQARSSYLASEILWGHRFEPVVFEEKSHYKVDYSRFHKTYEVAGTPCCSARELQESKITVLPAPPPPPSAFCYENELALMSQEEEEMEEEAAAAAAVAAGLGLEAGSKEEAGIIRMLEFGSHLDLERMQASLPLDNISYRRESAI
# Urease: Urease (Canavalia ensiformis, UniProt P07374)
# Sequence of UniProt P07374 (whole entry, looked up): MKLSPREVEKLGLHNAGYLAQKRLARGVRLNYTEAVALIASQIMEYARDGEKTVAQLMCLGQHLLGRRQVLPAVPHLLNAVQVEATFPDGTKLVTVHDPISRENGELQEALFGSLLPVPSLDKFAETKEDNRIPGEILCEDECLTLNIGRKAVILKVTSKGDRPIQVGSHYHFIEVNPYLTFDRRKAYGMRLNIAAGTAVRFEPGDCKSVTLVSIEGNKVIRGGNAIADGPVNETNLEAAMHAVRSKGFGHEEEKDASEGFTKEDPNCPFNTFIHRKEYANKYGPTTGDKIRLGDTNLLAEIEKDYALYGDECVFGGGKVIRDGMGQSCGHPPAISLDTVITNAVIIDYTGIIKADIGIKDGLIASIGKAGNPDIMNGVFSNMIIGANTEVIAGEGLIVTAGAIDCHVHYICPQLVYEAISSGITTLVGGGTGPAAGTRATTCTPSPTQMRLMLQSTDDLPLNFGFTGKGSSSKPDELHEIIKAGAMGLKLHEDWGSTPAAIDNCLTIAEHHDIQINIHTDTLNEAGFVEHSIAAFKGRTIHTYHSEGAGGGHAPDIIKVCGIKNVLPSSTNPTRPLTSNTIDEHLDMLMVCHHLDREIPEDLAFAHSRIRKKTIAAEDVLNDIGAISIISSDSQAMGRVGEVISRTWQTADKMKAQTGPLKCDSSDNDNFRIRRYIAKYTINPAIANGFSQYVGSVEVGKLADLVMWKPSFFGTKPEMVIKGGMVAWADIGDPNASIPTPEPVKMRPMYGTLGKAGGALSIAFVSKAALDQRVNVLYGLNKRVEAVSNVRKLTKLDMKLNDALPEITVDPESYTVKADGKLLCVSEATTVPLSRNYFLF
# Sequence of UniProt P42261 (whole entry, looked up): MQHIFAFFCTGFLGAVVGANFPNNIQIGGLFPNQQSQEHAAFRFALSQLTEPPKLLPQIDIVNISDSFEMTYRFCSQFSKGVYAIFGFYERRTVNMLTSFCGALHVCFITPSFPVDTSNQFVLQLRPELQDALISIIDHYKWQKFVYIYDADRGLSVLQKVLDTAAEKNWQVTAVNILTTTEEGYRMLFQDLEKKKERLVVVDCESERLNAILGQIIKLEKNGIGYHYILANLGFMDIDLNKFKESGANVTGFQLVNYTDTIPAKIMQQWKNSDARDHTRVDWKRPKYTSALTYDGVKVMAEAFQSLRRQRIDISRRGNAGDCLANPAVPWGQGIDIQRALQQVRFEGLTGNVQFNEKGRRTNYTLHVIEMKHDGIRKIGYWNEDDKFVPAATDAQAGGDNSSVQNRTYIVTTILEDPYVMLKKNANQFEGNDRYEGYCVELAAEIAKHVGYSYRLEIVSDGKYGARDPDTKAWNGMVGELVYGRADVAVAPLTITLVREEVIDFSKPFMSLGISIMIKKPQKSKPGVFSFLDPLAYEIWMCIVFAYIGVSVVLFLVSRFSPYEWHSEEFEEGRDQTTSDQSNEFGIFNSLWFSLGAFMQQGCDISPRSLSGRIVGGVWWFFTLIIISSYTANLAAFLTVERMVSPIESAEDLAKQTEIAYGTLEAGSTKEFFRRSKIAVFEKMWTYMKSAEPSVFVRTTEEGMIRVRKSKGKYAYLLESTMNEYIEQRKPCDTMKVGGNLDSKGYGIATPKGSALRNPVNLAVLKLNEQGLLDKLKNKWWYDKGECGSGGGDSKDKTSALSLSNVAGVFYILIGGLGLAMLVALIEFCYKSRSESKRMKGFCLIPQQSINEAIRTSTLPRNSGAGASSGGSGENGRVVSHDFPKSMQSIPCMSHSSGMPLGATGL
# Sequence of UniProt Q5S007 (whole entry, looked up): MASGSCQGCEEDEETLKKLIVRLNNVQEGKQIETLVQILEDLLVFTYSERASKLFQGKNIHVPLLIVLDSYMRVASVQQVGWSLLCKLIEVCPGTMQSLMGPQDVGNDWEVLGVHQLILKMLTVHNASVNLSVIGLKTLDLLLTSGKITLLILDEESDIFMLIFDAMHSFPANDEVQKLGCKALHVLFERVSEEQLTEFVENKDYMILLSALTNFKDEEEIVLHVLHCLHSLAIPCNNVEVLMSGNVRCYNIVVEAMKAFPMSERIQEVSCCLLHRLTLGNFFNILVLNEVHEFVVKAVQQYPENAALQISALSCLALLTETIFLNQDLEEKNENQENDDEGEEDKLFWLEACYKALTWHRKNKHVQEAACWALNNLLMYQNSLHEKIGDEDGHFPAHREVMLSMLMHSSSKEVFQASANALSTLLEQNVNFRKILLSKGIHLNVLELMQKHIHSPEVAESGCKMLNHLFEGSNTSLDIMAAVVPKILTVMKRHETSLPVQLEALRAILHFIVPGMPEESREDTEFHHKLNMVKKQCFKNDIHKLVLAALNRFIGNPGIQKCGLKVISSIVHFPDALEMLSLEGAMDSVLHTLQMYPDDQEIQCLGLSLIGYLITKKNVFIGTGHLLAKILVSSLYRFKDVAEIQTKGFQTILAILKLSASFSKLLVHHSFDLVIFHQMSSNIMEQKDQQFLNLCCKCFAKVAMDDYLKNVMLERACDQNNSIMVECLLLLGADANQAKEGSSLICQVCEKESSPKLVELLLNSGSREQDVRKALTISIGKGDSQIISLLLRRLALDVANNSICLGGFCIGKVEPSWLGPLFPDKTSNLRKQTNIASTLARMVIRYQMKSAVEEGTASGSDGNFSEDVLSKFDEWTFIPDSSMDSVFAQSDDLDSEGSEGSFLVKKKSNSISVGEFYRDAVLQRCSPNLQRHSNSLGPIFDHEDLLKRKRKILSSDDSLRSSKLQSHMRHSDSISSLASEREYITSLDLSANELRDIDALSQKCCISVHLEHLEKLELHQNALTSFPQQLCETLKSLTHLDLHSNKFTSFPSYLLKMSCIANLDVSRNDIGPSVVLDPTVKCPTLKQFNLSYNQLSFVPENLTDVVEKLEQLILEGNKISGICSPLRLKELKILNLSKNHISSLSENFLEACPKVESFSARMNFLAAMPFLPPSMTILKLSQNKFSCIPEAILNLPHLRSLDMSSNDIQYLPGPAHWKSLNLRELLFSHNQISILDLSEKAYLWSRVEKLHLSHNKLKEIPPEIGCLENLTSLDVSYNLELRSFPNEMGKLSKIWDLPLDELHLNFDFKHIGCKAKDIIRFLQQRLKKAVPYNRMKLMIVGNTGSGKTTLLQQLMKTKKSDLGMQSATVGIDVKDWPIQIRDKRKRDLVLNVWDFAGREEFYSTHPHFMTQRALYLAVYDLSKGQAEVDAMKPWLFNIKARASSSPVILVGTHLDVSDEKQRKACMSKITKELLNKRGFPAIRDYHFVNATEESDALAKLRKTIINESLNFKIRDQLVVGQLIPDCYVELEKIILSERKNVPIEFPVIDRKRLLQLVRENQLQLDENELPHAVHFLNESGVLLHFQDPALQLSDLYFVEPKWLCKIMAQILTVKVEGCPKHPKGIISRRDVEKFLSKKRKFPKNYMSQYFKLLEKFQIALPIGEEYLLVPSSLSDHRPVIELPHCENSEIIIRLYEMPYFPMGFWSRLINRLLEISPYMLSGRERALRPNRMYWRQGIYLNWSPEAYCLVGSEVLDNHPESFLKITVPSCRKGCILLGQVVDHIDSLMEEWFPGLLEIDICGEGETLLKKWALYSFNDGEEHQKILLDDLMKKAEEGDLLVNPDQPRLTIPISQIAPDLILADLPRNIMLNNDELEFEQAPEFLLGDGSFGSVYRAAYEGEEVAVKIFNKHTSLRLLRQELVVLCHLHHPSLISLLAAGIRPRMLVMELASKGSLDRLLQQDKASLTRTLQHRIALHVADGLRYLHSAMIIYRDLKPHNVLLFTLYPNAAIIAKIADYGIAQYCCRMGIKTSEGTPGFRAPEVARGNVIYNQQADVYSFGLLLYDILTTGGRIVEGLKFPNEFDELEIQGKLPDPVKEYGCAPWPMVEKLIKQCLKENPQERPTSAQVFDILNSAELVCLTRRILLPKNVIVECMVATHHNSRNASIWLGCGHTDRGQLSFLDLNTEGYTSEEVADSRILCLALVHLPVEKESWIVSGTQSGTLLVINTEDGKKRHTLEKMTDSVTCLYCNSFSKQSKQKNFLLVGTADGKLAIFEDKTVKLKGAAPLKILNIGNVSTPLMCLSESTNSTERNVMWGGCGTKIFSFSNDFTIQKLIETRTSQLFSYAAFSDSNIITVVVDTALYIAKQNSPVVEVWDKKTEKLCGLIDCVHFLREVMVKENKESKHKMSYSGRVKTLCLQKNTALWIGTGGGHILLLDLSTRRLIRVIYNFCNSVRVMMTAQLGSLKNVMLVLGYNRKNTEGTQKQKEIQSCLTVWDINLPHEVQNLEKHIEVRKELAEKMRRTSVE
# Sequence of UniProt Q9NXA8 (whole entry, looked up): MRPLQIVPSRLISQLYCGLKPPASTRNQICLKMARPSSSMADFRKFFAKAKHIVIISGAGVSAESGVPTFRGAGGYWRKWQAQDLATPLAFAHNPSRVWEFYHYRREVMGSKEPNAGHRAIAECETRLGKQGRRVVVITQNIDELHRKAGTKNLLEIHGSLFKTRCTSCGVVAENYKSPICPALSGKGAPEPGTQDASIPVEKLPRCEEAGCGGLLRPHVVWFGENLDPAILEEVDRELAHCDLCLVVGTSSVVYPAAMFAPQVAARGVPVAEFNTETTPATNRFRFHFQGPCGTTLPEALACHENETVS
SMILES,target,assay,system,conditions,IC50
COC(=O)C1=C(C)NC(C)=C(C(=O)OC)C1c1ccccc1[N+](=O)[O-],"CACNA1H (Homo sapiens, UniProt O95180)","calcium current, blocker, automated patch clamp",holding potential -90 mV,"last pulse of train, added: 1 Hz pulse train",> 3 µM
N=c1n(Cc2ccc(Cl)cc2)c2ccccc2n1CC(O)COc1ccc(Cl)cc1 (stereo not drawn),"KCNJ13 (Homo sapiens, UniProt O60928, M125R)","ion flux, inhibitor",,,19.5 µM
Cc1cccc(Cc2nn(C(C)(C)C)c3ncnc(N)c23)c1,"EPHB1 (Homo sapiens, UniProt P54762)","enzyme activity, inhibitor, radiometric",,,0.58 µM
N=c1n(Cc2ccccc2)c2ccccc2n1CC(O)COc1cccc(Cl)c1 (stereo not drawn),Inward rectifier potassium channel 4,"ion flux, inhibitor, fluorescence",,,4.45 µM
CC(C)c1ccc2c(c1)c(SC(C)(C)C)c(CC(C)(C)C(=O)O)n2Cc1ccc(Cl)cc1,"KCNK18 (Homo sapiens, UniProt Q7Z418)","ion flux, inhibitor",,,10 µM
N#Cc1ccc([C@@H](Cc2ccc(OS(N)(=O)=O)c(Br)c2)n2cncn2)cc1,"Steryl-sulfatase (STS, Homo sapiens, UniProt P08842)","enzyme activity, inhibitor",,,1.15 ± 0.05 µM
O=C(O)c1cc(=O)c2c(OCC(O)COc3cccc4oc(C(=O)O)cc(=O)c34)cccc2o1,hyaluronidase,"enzyme activity, inhibitor, colorimetric p-DAB",,"pH 4.0, 37 °C, added: potassium hyaluronate",157 µM
O=S(=O)(c1cc(C(=S)Nc2cc(F)c(F)c(F)c2)c(Cl)cc1Cl)N1CCOCC1,"LPAR1 (Homo sapiens, UniProt Q92633)","Ca2+ mobilization, antagonist",RH7777,added: LPA at EC50,> 100 µM
C[C@H]1O[C@H](O[C@H]2[C@H](O)[C@@H](O)[C@@H](O[C@H]3[C@H](O)[C@@H](O)C(O)O[C@@H]3CO)O[C@@H]2CO)[C@H](O)[C@@H](O)[C@@H]1N[C@H]1C=C(CO)[C@@H](O)[C@H](O)[C@H]1O (stereo partly drawn),"maltase, rat intestine","enzyme activity, inhibitor",,"45 min, pH 6.8, 37 °C, added: maltose 5 mM",114 ± 3.68 µg/mL
Cc1ccc2nc(C3CCC3)n(-c3ccc4[nH]c(=O)sc4c3)c2n1,"GRIA1/CACNG8 (Homo sapiens, UniProt P42261+Q8WXS5)","calcium influx, antagonist, FLIPR",HEK293 expressing GluA1o,added: glutamate 100 µM,2e-05 µM
C[C@@H](CNCc1ccccc1)N1C[C@H](CCCNC(=N)N)N(CCc2cccc(F)c2)C1=S,"DRD2 (Homo sapiens, UniProt P14416)","receptor activation, antagonist, FLIPR",,,> 10 µM
CCC(C)c1nc2cc(-c3nn(C(C)(C)C)c4ncnc(N)c34)ccc2s1 (stereo not drawn),"RIPK3 (Homo sapiens, UniProt Q9Y572)","enzyme activity, inhibitor, ADP detection",,,0.041 µM
S=C(Nc1cccc(Cl)c1)N1CCc2ccccc2C1,Urease,"enzyme activity, inhibitor, absorbance",,,31.2 µM
N#Cc1ccc(F)c(OCC(O)Cn2c(=N)n(Cc3ccccc3)c3ccccc32)c1 (stereo not drawn),Inward rectifier potassium channel 4,"ion flux, inhibitor, fluorescence",,,5.3 µM
CN1CCc2c(c3ccccc3n2Cc2ccc(C(=O)NO)cc2)C1,HDAC (Lucilia cuprina egg nuclear extract),"enzyme activity, inhibitor, fluorometric",,,71 µM
O=c1cc(-c2cccc3ccccc23)[nH][nH]1,"ALPL (Homo sapiens, UniProt P05186)","enzyme activity, inhibitor, luminescence",,"added: 0.1 M DEA, 50 µM CDP-star",4.01 ± 0.223 µM
O=C(OC[C@H]1OC[C@H](OC(=O)c2cc(O)c(O)c(O)c2)[C@@H](O)[C@@H]1O)c1cc(O)c(O)c(O)c1,"ALKBH2 (Homo sapiens, UniProt Q6NS38)","3-methylcytosine repair, inhibitor, HPLC",,"1 h, 37 °C, added: ssDNA 16mer 5 µM",22.6 µM
O=[N+]([O-])c1ccc(NC(=S)N2CCc3ccccc3C2)cc1,Urease,"enzyme activity, inhibitor, absorbance",,,50.4 µM
CC(C)(COP(=O)(O)OP(=O)(O)OC[C@H]1O[C@@H](n2cnc3c(N)ncnc32)[C@H](O)[C@@H]1OP(=O)(O)O)[C@@H](O)C(=O)NCCC(=O)NCCS,"N-alpha-acetyltransferase 50 (Homo sapiens, UniProt Q9GZZ1)","binding, BRET tracer displacement",,added: Cy3-labelled tracer,7.3 µM
Cc1cc(OCC(=O)N/N=C/c2ccc(OCc3cn(Cc4ccc(Br)cc4)nn3)cc2)c2c(C)cc(=O)oc2c1,Urease,"enzyme activity, inhibitor",,,11.8 ± 1.32 µM
C#CCOc1ccc2c(=O)cc(-c3ccccc3)oc2c1,"Cytochrome P450 2B1 (Cyp2b1, Rattus norvegicus, UniProt P00176)","enzyme activity, inhibitor",supersomes,added: pentoxyresorufin 5 µM,> 10 µM
CN1CCN(CCC(=O)Nc2ccc3c(c2)Sc2cccc(-c4cc(=O)cc(N5CCOCC5)o4)c2S3)CC1,"PI4K, human","enzyme activity, inhibitor",,,> 10 µM
O=C(O)CCNC(=S)NCCCC[C@H](NS(=O)(=O)c1cccc(F)c1)C(=O)N[C@@H](Cc1c[nH]c2ccccc12)C(=O)NC1CCC1,"SIRT5 (Homo sapiens, UniProt Q9NXA8)","desuccinylase activity, inhibitor",,"30 min, room temperature, added: succinyl peptide substrate, 250 µM NAD+",0.102 ± 0.008 µM
COc1cccc(Cn2c(=N)n(CC(O)COc3ccc(C)cc3)c3ccccc32)c1 (stereo not drawn),Inward rectifier potassium channel 4,"ion flux, inhibitor, fluorescence",,,2.8 µM
N#CC1=C(N)Oc2c(c(=O)[nH]c3ccccc23)C1c1cccc(OCc2cn(Cc3ccc(Br)cc3)nn2)c1 (stereo not drawn),"MAL12 (Saccharomyces cerevisiae S288c, UniProt P53341)",enzyme activity,,,9.19 ± 0.17 µM
Cn1cc(-c2c[nH]c3ncnc(N4CCOCC4)c23)cc1C#N,"LRRK2 (Homo sapiens, UniProt Q5S007)",AlphaScreen,,"wild type, added: ATP 9.5 µM",0.006 µM
O=[N+]([O-])c1ccc(N2CCN(S(=O)(=O)c3ccc(F)cc3)CC2)cc1NCc1ncon1,"Kir1 channel protein (Aedes aegypti, UniProt L0EQS9)","ion flux, inhibitor, fluorescence",,,0.19 µM
Cn1c(=N)n(CC(O)COc2ccc(C(F)(F)F)cc2)c2ccccc21 (stereo not drawn),Inward rectifier potassium channel 4,"ion flux, inhibitor, fluorescence",,,4.9 µM
NC/C(=C\F)COc1cccc(Cn2c(=S)[nH]c(=O)c3[nH]cnc32)c1,"Myeloperoxidase (MPO, Homo sapiens, UniProt P05164)","H2O2 consumption, H2O2 electrode",,"enzyme 10 nM, added: H2O2 50 µM, taurine 5 mM",0.08 µM
CCN(CCO)CCC[C@H](C)Nc1ccnc2cc(Cl)ccc12,"KCNJ2 (Homo sapiens, UniProt P63252)","ion current, inhibitor, patch clamp",,,6.5 µM
NC(=O)c1cnc(NCCc2ccc(O)c(Cl)c2)nc1NCc1ccccc1,"ATM (Homo sapiens, UniProt Q13315)","kinase activity reporter, inhibitor, SPARK reporter imaging",HEK293,"1 h, added: etoposide 3 µM",0.325 µM
COc1c(O)cc2oc3cc(O)c(CC=C(C)C)c(O)c3c(=O)c2c1CC=C(C)C,"Sterol carrier protein 2 (Helicoverpa armigera, UniProt K7NSY9)","displacement of 1,8-ANS, fluorescence",,"pH 7.0, 25 °C, added: 1,8-ANS 15 µM",11.5 µM
O=C1c2c(O)cc(O)cc2O[C@H](c2cc(O)c(O)c(O)c2)[C@H]1O,"GABAA receptor benzodiazepine site, rat","binding, radioligand displacement",cortex membranes,added: [3H]flunitrazepam 1 nM,4.36 µM
Nc1ncnc2c1ncn2[C@@H]1O[C@H](COP(=O)(O)O)[C@@H](OP(=O)(O)O)[C@H]1O,"AASDHPPT (Homo sapiens, UniProt Q9NRN7)","phosphopantetheinylation, inhibitor, fluorescence polarization",,"45 min, pH 7.6, 10% DMSO, added: VibB 10 µM and rhodamine-CoA 5 µM",6 ± 1 µM
Cc1cc(OCC(=O)N/N=C/c2cccc(OCc3cn(Cc4ccc(Cl)cc4)nn3)c2)c2c(C)cc(=O)oc2c1,Urease,"enzyme activity, inhibitor",,,9.59 µM
N=C(N)SCCc1ccc(OCc2ccc([N+](=O)[O-])cc2)cc1,"Sodium/calcium exchanger 1, isoform NCX1.7 (SLC8A1, Homo sapiens, UniProt P32418)","forward-mode exchange current, inhibitor, inside-out patch clamp",tsA201,β-cell splice variant,2.4 µM
[Cl-].[Cl-].[Cl-].[Tb+3],human MMP-2 catalytic domain,inhibitor,,"pH 7.5, 37 °C, 45 min preincubation, added: DQ-gelatin",6.2 ± 0.32 µM
O=C(/C=C/c1cccc(S(=O)(=O)Nc2ccccc2)c1)NO,HDAC (Lucilia cuprina egg nuclear extract),"enzyme activity, inhibitor, fluorometric",,,< 0.3 µM
OC[C@H]1O[C@H]([S-])[C@H](O)[C@@H](O)[C@@H]1O.[Au+],"Carbamate kinase (Giardia intestinalis, UniProt A8BB85)","enzyme activity, ATP luminescence",,,1.46 µM

# Excerpt of the above:
SMILES,target,assay,system,conditions,IC50
CN1CCc2c(c3ccccc3n2Cc2ccc(C(=O)NO)cc2)C1,HDAC (Lucilia cuprina egg nuclear extract),"enzyme activity, inhibitor, fluorometric",,,71 µM
Cc1cc(OCC(=O)N/N=C/c2cccc(OCc3cn(Cc4ccc(Cl)cc4)nn3)c2)c2c(C)cc(=O)oc2c1,Urease,"enzyme activity, inhibitor",,,9.59 µM
COC(=O)C1=C(C)NC(C)=C(C(=O)OC)C1c1ccccc1[N+](=O)[O-],"CACNA1H (Homo sapiens, UniProt O95180)","calcium current, blocker, automated patch clamp",holding potential -90 mV,"last pulse of train, added: 1 Hz pulse train",> 3 µM
N=C(N)SCCc1ccc(OCc2ccc([N+](=O)[O-])cc2)cc1,"Sodium/calcium exchanger 1, isoform NCX1.7 (SLC8A1, Homo sapiens, UniProt P32418)","forward-mode exchange current, inhibitor, inside-out patch clamp",tsA201,β-cell splice variant,2.4 µM
N=c1n(Cc2ccc(Cl)cc2)c2ccccc2n1CC(O)COc1ccc(Cl)cc1 (stereo not drawn),"KCNJ13 (Homo sapiens, UniProt O60928, M125R)","ion flux, inhibitor",,,19.5 µM
CC(C)(COP(=O)(O)OP(=O)(O)OC[C@H]1O[C@@H](n2cnc3c(N)ncnc32)[C@H](O)[C@@H]1OP(=O)(O)O)[C@@H](O)C(=O)NCCC(=O)NCCS,"N-alpha-acetyltransferase 50 (Homo sapiens, UniProt Q9GZZ1)","binding, BRET tracer displacement",,added: Cy3-labelled tracer,7.3 µM
CCC(C)c1nc2cc(-c3nn(C(C)(C)C)c4ncnc(N)c34)ccc2s1 (stereo not drawn),"RIPK3 (Homo sapiens, UniProt Q9Y572)","enzyme activity, inhibitor, ADP detection",,,0.041 µM
